Experimental data pooled from the literature.
Every numbered part comes from another study and shows a few of its results, in no order. Several values in a cell are separate wells, animals, samples, runs or records.

Sample 1
SMILES: O=C(O)C1(O)Oc2ccccc2N(Cc2ccccc2)C1=O (stereo not drawn)
Quantity: inhibition
Arabidopsis thaliana; hypocotyl length; Col-0; 50.0 µg/mL, 7 days, seed germination, dark: 25.1%
Arabidopsis thaliana; root length; Col-0, seedlings; 12.5 µg/mL; relative to: water control: 4.59%
Arabidopsis thaliana; hypocotyl length; Col-0, seedlings; 50 µg/mL: 30.8%
Arabidopsis thaliana; root length; Col-0; 50.0 µg/mL, 7 days, seed germination, dark: 22%
Arabidopsis thaliana; hypocotyl length; Col-0, seedlings; 6.25 µg/mL: 8.46%
Arabidopsis thaliana; root length; Col-0; 3.13 µg/mL, 7 days, seed germination, dark: 9.5%
Arabidopsis thaliana; root length; Col-0, seedlings; 100 µg/mL: 43.6%
Arabidopsis thaliana; root length; Col-0; 6.25 µg/mL, 7 days, seed germination, dark: 7.2%
Triticum aestivum; fresh weight; soil surface spray, 150 g ai/ha, 21 days, pre-emergence crop safety: 17.2% and 19.4% and 18.9%
Arabidopsis thaliana; root length; Col-0, seedlings; 6.25 µg/mL: 3.91%
Arabidopsis thaliana; root length; Col-0; 25.0 µg/mL, 7 days, seed germination, dark: 17.6%
Arabidopsis thaliana; hypocotyl length; Col-0; 3.125 µg/mL, 7 days, seed germination, dark: 1.1%
Abutilon theophrasti; fresh weight; 150 g ai/ha, pre-emergence treatment: 12.6% and 11.8% and 13.1%
Eclipta prostrata; fresh weight; 150 g ai/ha, post-emergence treatment: 53.7% and 47.7% and 47%

Sample 2
Structure (SMILES): CCN1/C(=C/C=C2\CCCC(/C=C/C3=[N+](CC)c4ccccc4C3(C)C)=C2NCCCCCCCCN2CCC(Nc3nc4ccccc4n3Cc3ccc(F)cc3)CC2)C(C)(C)c2ccccc21
Cell line: U-87 MG
Concentration: concentration not given
Relative to: DMSO
Quantity: log2 fold change
refers to: CDC7 mRNA: -1.94
refers to: TUBB2A mRNA: -1.18
refers to: GRB10 mRNA: 1.11
refers to: ERICH2 mRNA: 1.82
refers to: KLHL24 mRNA: 1.7
refers to: TLR3 mRNA: -1.95
refers to: TTC31 mRNA: -0.846
refers to: HSPA9 mRNA: 0.978
refers to: CNTRL mRNA: -1.59
refers to: SLC25A13 mRNA: -0.958
refers to: RPS6KA4 mRNA: -0.952

Mixed results
PKMYT1: Membrane-associated tyrosine- and threonine-specific cdc2-inhibitory kinase (PKMYT1, Homo sapiens, UniProt Q99640)
Sequence of UniProt Q99640 (whole entry, looked up): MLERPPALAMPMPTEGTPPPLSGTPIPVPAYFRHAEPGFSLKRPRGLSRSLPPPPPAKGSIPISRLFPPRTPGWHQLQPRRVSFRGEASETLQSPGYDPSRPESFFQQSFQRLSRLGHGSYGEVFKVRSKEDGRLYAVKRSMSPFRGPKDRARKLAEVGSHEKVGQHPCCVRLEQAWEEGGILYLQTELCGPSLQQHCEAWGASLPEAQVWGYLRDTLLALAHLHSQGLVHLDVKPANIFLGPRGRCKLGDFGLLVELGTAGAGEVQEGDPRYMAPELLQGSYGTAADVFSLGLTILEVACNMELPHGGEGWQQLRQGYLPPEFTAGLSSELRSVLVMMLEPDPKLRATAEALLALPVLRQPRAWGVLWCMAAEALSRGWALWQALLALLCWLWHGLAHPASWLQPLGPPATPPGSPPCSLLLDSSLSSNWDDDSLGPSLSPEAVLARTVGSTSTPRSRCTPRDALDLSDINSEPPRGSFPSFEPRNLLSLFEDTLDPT
CDK12 with cyclin K: Cyclin-dependent kinase 12, with cyclin K (CDK12, Homo sapiens, UniProt Q9NYV4)
Sequence of UniProt Q9NYV4 (whole entry, looked up): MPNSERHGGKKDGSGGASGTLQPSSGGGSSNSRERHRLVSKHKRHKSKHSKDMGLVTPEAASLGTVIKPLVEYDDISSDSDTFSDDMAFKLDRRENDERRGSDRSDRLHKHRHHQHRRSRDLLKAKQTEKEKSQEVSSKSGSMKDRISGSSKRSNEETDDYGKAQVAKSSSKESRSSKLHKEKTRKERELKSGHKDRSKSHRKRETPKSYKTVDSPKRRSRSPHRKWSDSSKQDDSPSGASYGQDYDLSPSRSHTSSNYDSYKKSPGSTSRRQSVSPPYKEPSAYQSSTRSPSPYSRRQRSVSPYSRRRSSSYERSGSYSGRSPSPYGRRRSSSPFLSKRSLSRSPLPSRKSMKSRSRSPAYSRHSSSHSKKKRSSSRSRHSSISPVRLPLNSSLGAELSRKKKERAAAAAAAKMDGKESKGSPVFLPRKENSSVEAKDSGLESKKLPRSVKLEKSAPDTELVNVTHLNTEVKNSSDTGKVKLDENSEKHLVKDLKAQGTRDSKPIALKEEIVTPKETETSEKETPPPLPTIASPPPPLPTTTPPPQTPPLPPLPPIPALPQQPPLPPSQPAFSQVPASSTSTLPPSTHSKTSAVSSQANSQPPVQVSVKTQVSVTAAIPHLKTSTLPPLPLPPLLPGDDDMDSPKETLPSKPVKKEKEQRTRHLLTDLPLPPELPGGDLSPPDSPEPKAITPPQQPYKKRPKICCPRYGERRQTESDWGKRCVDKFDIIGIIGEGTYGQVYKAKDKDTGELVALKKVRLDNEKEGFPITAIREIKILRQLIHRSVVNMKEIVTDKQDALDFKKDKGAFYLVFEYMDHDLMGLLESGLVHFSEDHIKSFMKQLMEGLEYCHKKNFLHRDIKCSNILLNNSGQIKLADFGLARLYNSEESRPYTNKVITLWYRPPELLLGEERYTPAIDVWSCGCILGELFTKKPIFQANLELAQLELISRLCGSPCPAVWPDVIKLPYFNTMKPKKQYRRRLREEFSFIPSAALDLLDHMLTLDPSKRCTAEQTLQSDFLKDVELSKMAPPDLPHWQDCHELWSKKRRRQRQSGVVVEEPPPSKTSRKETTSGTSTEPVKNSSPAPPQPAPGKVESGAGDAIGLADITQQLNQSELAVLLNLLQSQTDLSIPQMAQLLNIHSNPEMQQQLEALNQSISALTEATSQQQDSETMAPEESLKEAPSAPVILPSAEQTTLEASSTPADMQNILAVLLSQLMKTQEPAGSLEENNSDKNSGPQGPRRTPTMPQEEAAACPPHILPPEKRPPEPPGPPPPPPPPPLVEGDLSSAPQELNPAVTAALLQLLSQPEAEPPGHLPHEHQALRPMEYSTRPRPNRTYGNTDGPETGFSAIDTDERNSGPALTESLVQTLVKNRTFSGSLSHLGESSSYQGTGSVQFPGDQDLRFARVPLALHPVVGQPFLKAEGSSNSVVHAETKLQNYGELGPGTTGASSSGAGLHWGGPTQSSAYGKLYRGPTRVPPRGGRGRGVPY
Cc1ccc(O)c(C)c1-c1cnc2[nH]c(-c3cnc(N4CCC5(CC4)CC(N4CCN(c6ccc(N[C@H]7CCC(=O)NC7=O)cc6F)CC4)CO5)nc3)cc2c1C#N (single isomer, unassigned) — plasma concentration (Sprague-Dawley rat; intravenous, dose not given, 24 h): not detected
CCn1cnc2c(NCc3nc4cc(Cl)c(Cl)cc4[nH]3)nc(N3CCN(C(=O)CNC(C)=O)CC3)nc21 — luminescence signal (MDA-MB-468; cell viability, CellCounting-Lite; 74.07 nM, 37 °C; higher = more viable cells): 31000 a.u. and 34500 a.u. and 36700 a.u.
Cc1ncc(-c2cc3c(Cl)c(-c4c(C)ccc(O)c4C)cnc3[nH]2)cn1 — inhibition (PKMYT1; binding, HTRF; 10000 nM): 98.7% and 99.4%
CCn1cnc2c(NCc3nc4cc(F)c(F)cc4[nH]3)nc(N3CCn4ncnc4C3)nc21 — EC50 (MDA-MB-231; cell growth or viability; 5 days): 239 nM
Cc1ccc(O)c(C)c1-c1cnc2[nH]c(-c3cnc(N4CCC(CN5CCC(c6ccc(NC7CCC(=O)NC7=O)cc6F)CC5)CC4)nc3)cc2c1C#N (stereo not drawn) — phospho-CDK1 (Thr14) level (HCC1569; CDK1 Thr14 phosphorylation, in-cell western; 37.04 nM; lower = stronger inhibition): 51.5 a.u. and 33.9 a.u.
CCn1cnc2c(NCc3nc4cc(Cl)c(Cl)cc4[nH]3)nc(N3CCN(C(C)=O)CC3)nc21 — inhibition (CDK12 with cyclin K; kinase activity, inhibitor, ADP-Glo; 0.6667 µM): 84.3%
Cc1ccc(O)c(C)c1-c1cnc2[nH]c(-c3cnc(N4CCC(CCN5CCN(c6cc7c(cc6F)c(N6CCC(=O)NC6=O)nn7C)CC5)CC4)nc3)cc2c1C#N — inhibition (PKMYT1; binding, HTRF; 4.12 nM): 58.2% and 56.9%
Cn1cc(-n2cnc3c(NCc4nc5cc(Cl)c(Cl)cc5[nH]4)nc(N4CCNCC4)nc32)cn1 — inhibition (CDK12 with cyclin K; kinase activity, inhibitor, ADP-Glo; 0.6667 µM): 51.2%

Excerpt of the above (sample 1):
Arabidopsis thaliana; root length; Col-0, seedlings; 12.5 µg/mL; relative to: water control: 4.59%
Arabidopsis thaliana; hypocotyl length; Col-0, seedlings; 50 µg/mL: 30.8%
Arabidopsis thaliana; root length; Col-0; 50.0 µg/mL, 7 days, seed germination, dark: 22%
Arabidopsis thaliana; hypocotyl length; Col-0, seedlings; 6.25 µg/mL: 8.46%
